Assay results collected from several papers.
Each line is one published result; not all experiments were run side by side. Several values in a cell are separate wells, animals, samples, runs or records. Numbers after ± are the reported error.
NR3C1: Glucocorticoid receptor (NR3C1, Homo sapiens, UniProt P04150)

Amino acid sequences for entries named in this document (tags omitted). A change or cut given only in a name is not applied to a line headed by its entry. Residues count along the entry.
UniProt P04150, whole entry: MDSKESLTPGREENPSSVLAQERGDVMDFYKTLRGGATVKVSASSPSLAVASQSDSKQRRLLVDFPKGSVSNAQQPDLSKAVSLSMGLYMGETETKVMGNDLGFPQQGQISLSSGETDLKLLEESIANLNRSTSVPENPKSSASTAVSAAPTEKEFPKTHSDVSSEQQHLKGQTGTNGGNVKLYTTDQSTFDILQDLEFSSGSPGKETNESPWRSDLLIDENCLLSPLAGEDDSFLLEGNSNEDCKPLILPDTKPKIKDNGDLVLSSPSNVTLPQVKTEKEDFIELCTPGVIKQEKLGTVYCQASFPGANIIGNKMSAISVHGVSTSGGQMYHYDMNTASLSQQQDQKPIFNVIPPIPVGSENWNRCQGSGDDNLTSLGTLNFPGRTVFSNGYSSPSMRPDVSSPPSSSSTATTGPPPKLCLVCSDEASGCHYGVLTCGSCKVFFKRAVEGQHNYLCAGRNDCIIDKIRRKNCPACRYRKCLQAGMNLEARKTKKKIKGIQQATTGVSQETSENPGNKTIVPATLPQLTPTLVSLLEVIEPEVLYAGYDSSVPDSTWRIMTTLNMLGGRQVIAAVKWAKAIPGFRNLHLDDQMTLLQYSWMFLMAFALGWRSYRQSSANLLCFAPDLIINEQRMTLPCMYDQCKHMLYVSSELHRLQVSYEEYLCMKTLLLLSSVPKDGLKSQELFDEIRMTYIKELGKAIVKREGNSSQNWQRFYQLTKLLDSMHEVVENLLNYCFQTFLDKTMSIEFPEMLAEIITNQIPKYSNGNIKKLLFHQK
UniProt O14618, 11-74 limits assumed: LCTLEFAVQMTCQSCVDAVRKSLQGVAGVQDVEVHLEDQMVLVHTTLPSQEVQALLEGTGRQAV
UniProt P30542, whole entry: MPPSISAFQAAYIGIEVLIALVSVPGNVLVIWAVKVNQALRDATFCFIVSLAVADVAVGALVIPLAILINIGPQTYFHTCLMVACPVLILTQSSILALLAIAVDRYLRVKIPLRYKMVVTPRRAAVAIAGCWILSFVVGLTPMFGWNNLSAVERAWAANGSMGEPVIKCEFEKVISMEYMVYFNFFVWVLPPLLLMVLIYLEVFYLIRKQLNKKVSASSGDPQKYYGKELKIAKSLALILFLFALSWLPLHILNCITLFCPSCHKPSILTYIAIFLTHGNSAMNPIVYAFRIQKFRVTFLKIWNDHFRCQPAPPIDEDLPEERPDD
UniProt P07550, whole entry M96T/M98T/N187E/C378A/C406A: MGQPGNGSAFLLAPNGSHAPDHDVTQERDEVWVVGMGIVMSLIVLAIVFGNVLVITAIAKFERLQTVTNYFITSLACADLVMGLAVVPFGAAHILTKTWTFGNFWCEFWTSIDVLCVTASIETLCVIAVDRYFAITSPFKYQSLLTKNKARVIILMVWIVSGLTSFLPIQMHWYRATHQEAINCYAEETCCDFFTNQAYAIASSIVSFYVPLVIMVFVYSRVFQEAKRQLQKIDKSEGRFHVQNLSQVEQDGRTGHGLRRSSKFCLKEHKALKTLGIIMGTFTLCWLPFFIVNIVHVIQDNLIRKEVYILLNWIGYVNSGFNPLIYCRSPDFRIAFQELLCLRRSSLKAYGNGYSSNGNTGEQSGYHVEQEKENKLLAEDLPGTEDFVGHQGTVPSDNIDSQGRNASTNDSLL
UniProt P31749, 5-108 limits assumed: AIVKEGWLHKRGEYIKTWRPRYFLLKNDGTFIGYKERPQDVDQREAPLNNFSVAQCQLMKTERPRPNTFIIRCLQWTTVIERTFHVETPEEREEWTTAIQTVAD
UniProt Q9Y508, whole entry: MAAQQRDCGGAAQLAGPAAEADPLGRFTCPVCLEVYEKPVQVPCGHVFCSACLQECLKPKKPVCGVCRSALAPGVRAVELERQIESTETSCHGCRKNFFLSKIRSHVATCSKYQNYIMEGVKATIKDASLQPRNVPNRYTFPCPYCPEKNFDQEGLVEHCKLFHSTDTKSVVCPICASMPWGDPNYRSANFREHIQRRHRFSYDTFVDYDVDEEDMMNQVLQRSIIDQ
UniProt P26040, whole entry: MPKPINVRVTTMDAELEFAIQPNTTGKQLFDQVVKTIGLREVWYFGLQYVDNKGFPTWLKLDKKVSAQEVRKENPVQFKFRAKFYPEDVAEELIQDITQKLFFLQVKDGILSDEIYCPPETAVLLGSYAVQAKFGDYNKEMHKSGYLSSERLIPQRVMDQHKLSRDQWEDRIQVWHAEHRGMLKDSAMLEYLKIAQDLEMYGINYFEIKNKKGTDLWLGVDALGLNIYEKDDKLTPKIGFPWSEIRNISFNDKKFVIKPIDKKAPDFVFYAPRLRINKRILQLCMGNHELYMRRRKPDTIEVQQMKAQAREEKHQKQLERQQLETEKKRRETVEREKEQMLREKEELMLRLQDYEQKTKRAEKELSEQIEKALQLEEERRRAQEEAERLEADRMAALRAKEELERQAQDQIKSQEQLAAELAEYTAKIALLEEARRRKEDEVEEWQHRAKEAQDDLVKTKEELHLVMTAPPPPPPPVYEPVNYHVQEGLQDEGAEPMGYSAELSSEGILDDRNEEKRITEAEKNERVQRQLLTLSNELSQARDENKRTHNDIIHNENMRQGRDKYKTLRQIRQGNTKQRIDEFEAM
UniProt Q06124, whole entry: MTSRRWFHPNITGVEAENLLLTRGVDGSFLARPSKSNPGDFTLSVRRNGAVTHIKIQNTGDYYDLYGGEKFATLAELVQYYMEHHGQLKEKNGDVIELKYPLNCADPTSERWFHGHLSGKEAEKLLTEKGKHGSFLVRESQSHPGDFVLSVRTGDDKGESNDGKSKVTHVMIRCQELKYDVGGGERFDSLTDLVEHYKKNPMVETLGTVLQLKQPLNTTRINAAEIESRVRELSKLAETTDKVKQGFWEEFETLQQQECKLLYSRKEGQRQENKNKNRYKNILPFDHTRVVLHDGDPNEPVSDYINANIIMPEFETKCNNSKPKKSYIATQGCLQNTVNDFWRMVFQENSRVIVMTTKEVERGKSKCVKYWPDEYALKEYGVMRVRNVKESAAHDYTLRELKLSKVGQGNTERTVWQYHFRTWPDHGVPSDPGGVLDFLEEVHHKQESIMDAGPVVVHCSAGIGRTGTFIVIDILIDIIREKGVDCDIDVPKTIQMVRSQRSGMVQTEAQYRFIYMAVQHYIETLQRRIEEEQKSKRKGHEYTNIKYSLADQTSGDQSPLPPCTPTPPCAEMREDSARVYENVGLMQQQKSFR
UniProt P10688, 11-140 limits assumed: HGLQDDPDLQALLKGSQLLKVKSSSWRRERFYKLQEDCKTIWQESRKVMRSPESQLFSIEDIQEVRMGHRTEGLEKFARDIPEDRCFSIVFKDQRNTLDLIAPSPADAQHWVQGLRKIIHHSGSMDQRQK
UniProt P10721, 589-937 limits assumed: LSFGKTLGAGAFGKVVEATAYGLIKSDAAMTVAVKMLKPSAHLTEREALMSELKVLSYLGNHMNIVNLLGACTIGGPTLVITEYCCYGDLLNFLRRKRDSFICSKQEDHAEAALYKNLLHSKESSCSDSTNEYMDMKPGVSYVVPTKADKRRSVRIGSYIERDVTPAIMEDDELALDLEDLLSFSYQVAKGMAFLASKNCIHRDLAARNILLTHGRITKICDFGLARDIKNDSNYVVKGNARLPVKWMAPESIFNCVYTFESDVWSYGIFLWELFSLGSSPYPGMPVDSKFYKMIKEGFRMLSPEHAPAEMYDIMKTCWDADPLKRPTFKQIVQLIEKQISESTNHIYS
UniProt P10636, 623-758 limits assumed: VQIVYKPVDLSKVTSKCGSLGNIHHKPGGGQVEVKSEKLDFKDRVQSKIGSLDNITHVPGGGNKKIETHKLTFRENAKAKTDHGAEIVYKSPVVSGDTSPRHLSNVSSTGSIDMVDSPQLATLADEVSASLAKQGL
UniProt Q9BPZ7, 358-522 limits assumed: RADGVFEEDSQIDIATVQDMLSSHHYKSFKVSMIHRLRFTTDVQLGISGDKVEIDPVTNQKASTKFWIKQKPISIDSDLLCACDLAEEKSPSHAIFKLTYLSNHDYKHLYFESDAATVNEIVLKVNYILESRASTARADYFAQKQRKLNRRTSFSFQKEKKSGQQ
UniProt O95069, whole entry, looked up: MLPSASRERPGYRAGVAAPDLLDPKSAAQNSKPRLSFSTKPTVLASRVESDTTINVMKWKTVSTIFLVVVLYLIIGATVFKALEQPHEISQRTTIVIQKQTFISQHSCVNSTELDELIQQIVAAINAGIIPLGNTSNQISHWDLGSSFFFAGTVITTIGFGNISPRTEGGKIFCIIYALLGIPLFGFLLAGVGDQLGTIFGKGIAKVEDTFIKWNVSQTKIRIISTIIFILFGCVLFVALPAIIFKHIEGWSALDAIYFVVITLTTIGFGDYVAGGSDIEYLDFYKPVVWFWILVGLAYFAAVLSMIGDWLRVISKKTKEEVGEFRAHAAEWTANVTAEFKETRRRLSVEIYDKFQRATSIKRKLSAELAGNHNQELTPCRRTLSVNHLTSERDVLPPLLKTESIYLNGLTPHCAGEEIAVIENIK

SMILES = Nc1c(C(=O)Nc2c(F)cc(F)cc2Br)sc2nc3c(cc12)CCC3; target or system = Copper chaperone for superoxide dismutase, domain I (CCS, Homo sapiens, UniProt O14618); assay = binding, fluorescence anisotropy; measurement = Kd; result = 12200 nM
SMILES = CCCn1c(=O)c2[nH]c(-c3ccc(OCC(=O)NCCNC(=O)CCCCCNC(=O)COc4ccc(/C=C/C5=[N+]6C(=Cc7ccc(-c8cccs8)n7[B-]6(F)F)C=C5)cc4)cc3)nc2n(CCC)c1=O; target or system = ADORA1 (Homo sapiens, UniProt P30542); assay = NanoBRET saturation binding; test system = HEK293T expressing NanoLuc-tagged receptor; setting = 1 h, 37 °C; measurement = Kd; result = 147 ± 72 nM
SMILES = Fc1ccc(Nc2nc(NC3CCCCC3)c3cc(Br)ccc3n2)cc1F; target or system = ADRB2 (Homo sapiens, UniProt P07550, M96T/M98T/N187E/C378A/C406A); assay = allosteric, SPR steady state; setting = pH 7.5, 0.01% LMNG; measurement = Kd; result = ~30000 nM
SMILES = Cc1c(O)cc2c(c1C)O[C@](C)(CCCC(C)C)CC2; target or system = RAC-alpha serine/threonine-protein kinase, PH domain (AKT1, Homo sapiens, UniProt P31749); assay = binding; measurement = Kd; result = 900 ± 100 nM
SMILES = Nc1ncnc2c1ncn2[C@@H]1O[C@H](COP(=O)(O)OP(=O)(O)OC[C@H]2OC(O)[C@H](O)[C@@H]2O)[C@@H](O)[C@H]1O (stereo partly shown); target or system = RNF114 (Homo sapiens, UniProt Q9Y508); assay = fluorescence polarization; setting = pH 7.4, 22 °C, 150 mM NaCl, labelled compound; measurement = Kd; result = ~40000 nM
SMILES = O=C1C=C(NCCc2cc(Br)c(O)c(Br)c2)C(=O)c2ncccc21; target or system = Ezrin (Ezr, Mus musculus, UniProt P26040); assay = SPR; measurement = Kd; result = 12600 nM and ~10000 nM
SMILES = COc1cc(CC(=O)NCC(NC(=O)C(CCCNC(=O)c2cccc(I)c2)NC(=O)C(Cc2ccc(C(F)(F)P(=O)(O)O)cc2)NC(=O)c2ccc(C)c(Br)c2)C(N)=O)ccc1O (stereo not shown); target or system = PTPN11 (Homo sapiens, UniProt Q06124); assay = enzyme activity; setting = 10 µM; measurement = inhibition; result = no inhibition
SMILES = CCCCCCCC(=O)OCC(COP(=O)(O)OC1C(O)C(O)C(OP(=O)(O)O)C(OP(=O)(O)O)C1O)OC(=O)CCCCCCC (stereo not shown); target or system = 1-phosphatidylinositol 4,5-bisphosphate phosphodiesterase delta-1, PH domain (Plcd1, Rattus norvegicus, UniProt P10688); assay = membrane binding, sedimentation; test system = LUVs with PtdSer; measurement = Kd; result = 1700 ± 200 nM
SMILES = O=C(Nc1cccnn1)N1CC(Oc2ccc(-c3ccccc3F)cn2)C1; assay = measured: plasma endocannabinoids; test system = human, plasma; setting = oral, single dose; measurement = time to return to baseline; result = 72 h
SMILES = C[C@H]1CC[C@@]2(NC1)O[C@@H]1C[C@@H]3[C@@H]4CC=C5C[C@@H](O)CC[C@]5(C)[C@@H]4CC[C@]3(C)[C@H]1[C@@H]2C; target or system = NR3C1; assay = nuclear translocation, agonist, enzyme fragment complementation; measurement = EC50; result = > 9 µM
SMILES = CCN1CCN(Cc2ccc(NC(=O)c3ccc(C)c(Oc4ncnc5cc(OC)c(OC)cc45)c3)cc2C(F)(F)F)CC1; target or system = KIT (Homo sapiens, UniProt P10721); assay = KINOMEscan competition binding; setting = 1.0 µM; measurement = residual probe binding; result = 0.8%
SMILES = Fc1cc(-c2ccc3c(n2)[nH]c2ccncc23)ccn1 [isotope labelled]; target or system = Microtubule-associated protein tau, paired helical filaments (MAPT, Homo sapiens, UniProt P10636); assay = binding, radioligand binding; test system = AD brain PHF homogenate; measurement = Kd; result = 21 nM
SMILES = CCCCCCCC(=O)OC[C@H](COP(=O)(O)O[C@H]1[C@H](O)[C@@H](OP(=O)(O)O)[C@H](OP(=O)(O)O)[C@@H](OP(=O)(O)O)[C@H]1O)OC(=O)CCCCCCC; target or system = Target of rapamycin complex 2 subunit MAPKAP1, PH domain (Homo sapiens, UniProt Q9BPZ7); assay = binding, surface plasmon resonance; test system = immobilized lipid vesicles; measurement = Kd; result = 141 nM
SMILES = C[C@@]12CC[C@@H]3c4ccc(OP(=O)(O)O)cc4CC[C@@H]3[C@H]1CCC2=O; target or system = NR3C1; assay = nuclear translocation, agonist, enzyme fragment complementation; measurement = EC50; result = > 9 µM
SMILES = COc1cc(OC)c(NC(=O)CSc2nnc(-c3ccccc3)n2C)cc1Cl; target or system = Cyclin-dependent kinase 2, part with cyclin A (CDK2, Homo sapiens, UniProt P24941); measurement = Kd; result = > 100000 nM
SMILES = CCCCCCCC(=O)OCC(COP(=O)(O)OC1C(O)C(O)C(OP(=O)(O)O)C(OP(=O)(O)O)C1O)OC(=O)CCCCCCC (stereo not shown); target or system = KCNK2 (Homo sapiens, UniProt O95069); assay = BRET competition binding; test system = purified protein in detergent; setting = together with: fluorescent ligand 500 nM; measurement = Kd; result = 2400 ± 280 nM

Repeated from above:
SMILES = Nc1ncnc2c1ncn2[C@@H]1O[C@H](COP(=O)(O)OP(=O)(O)OC[C@H]2OC(O)[C@H](O)[C@@H]2O)[C@@H](O)[C@H]1O (stereo partly shown); target or system = RNF114 (Homo sapiens, UniProt Q9Y508); assay = fluorescence polarization; setting = pH 7.4, 22 °C, 150 mM NaCl, labelled compound; measurement = Kd; result = ~40000 nM
SMILES = O=C1C=C(NCCc2cc(Br)c(O)c(Br)c2)C(=O)c2ncccc21; target or system = Ezrin (Ezr, Mus musculus, UniProt P26040); assay = SPR; measurement = Kd; result = 12600 nM and ~10000 nM
